{"data": "Published values of several laboratories", "note": "Compare with care: the assays were run in different laboratories. Several values in a cell are separate wells, animals, samples, runs or records. ± gives the spread as reported."}
{"SMILES": "OC[C@H]1O[C@@H](c2ccc(Cl)c(Cc3ccc(OC4CCCC4)cc3)c2)[C@H](O)[C@@H](O)[C@@H]1O", "target or system": "H9c2", "test": "CCK-8", "setting": "0.1 µM, together with: glucose deprivation", "scale": "baseline: control", "measurement": "viability", "result": "48.5 ± 6.33%"}
{"SMILES": "COc1cc(N2CCN(C(=O)C3CCCN3)CC2)ccc1Nc1ncc(Cl)c(Nc2ccccc2P(C)(C)=O)n1 (centres unmarked)", "target or system": "Ba/F3 EML4-ALK", "test": "cell growth or viability, CCK-8", "setting": "1 µM, 3 h", "measurement": "viability", "result": "72% and 68% and 71%"}
{"SMILES": "C=C1C(=O)OC2C1CCC(C)(O)C13C=CC(C)(C21)C1(C3)C(=O)CC2(C(C)C)CC21 (centres unmarked)", "target or system": "AML12 mouse hepatocytes", "test": "MTT", "setting": "24 h, 10% FBS", "measurement": "maximum safe concentration", "result": "1.25 µM"}
{"SMILES": "Cl.NCc1ccc2c(c1)CN(C1CCC(=O)NC1=O)C2=O (centres unmarked)", "target or system": "SNU-398", "test": "CellTiter-Glo", "setting": "concentration not given, 72 h", "measurement": "minimum viability", "result": "30.7 ± 11.3%"}
{"SMILES": "[BH3-][P+]1(c2ccccc2)CCCCC1", "target or system": "PC-3", "test": "trypan blue", "setting": "IC50, 72 h", "measurement": "viability", "result": "92.7%"}
{"SMILES": "CC(C)OCCOCc1ccc(OCC(O)CN(N=O)C(C)C)cc1 (centres unmarked)", "target or system": "Escherichia coli", "test": "Ames test", "test system": "WP2 uvrA", "setting": "50 µg/plate, 30 % rat S9", "scale": "baseline: solvent control", "measurement": "revertant fold increase", "result": "0.9 fold"}
{"SMILES": "C=C1C(=O)OC2C1CCC(C)(O)C13C=CC(C)(C21)C1(C3)C(=O)OC2C3C(=C(C)CC(OC(C)=O)C21)CC(Cl)C3(C)O (centres unmarked)", "target or system": "AML12 mouse hepatocytes", "test": "MTT", "setting": "24 h, 10% FBS", "measurement": "maximum safe concentration", "result": "10 µM"}
{"SMILES": "C[C@H](NP(=O)(O)OC[C@H]1O[C@@](C#N)(c2ccc3c(N)ncnn23)[C@H](O)[C@@H]1O)C(=O)O", "target or system": "primary human hepatocytes", "test": "item: DNA", "setting": "4 h", "measurement": "CC50", "result": "> 100 µM"}
{"SMILES": "CO[C@@H]1[C@@H](O)[C@H](c2ccc(Cl)c(Cc3ccc(O[C@H]4CCOC4)cc3)c2)O[C@H](CO)[C@H]1O", "target or system": "H9c2", "test": "CCK-8", "setting": "0.1 µM, together with: glucose deprivation", "scale": "baseline: control", "measurement": "viability", "result": "43.8 ± 7.86%"}
{"SMILES": "C=C1C(=O)OC2C1CCC(C)(O)C13C=CC(C)(C21)C1(C3)C(=O)OC2C3C(C)=CCC3C(C)(O)CC(O)C21 (centres unmarked)", "target or system": "AML12 mouse hepatocytes", "test": "MTT", "setting": "24 h, 10% FBS", "measurement": "maximum safe concentration", "result": "40 µM"}
{"SMILES": "Cc1cccnc1-c1csc(C(=O)Nc2cc(Cl)cc(NS(C)(=O)=O)c2)c1", "target or system": "HLF1", "test": "cell growth or viability, ATP luminescence", "setting": "10 days", "measurement": "CC50", "result": "4.15 µM"}
{"SMILES": "C=C1C(=O)OC2C1CCC(C)(O)C13C=CC(C)(C21)C1(C3)C(=O)OC2C3C(C)=CCC3=C(C)CC(OC(C)=O)C21 (centres unmarked)", "target or system": "AML12 mouse hepatocytes", "test": "MTT", "setting": "24 h, 10% FBS", "measurement": "maximum safe concentration", "result": "5 µM"}
{"SMILES": "C[N+](C)(CF)CCO", "target or system": "HK-2", "test": "cell growth or viability, ATP luminescence", "setting": "24 h", "measurement": "IC50", "result": "> 150 µM"}
{"SMILES": "C=C1C(=O)OC2C1CCC(C)(O)C13C=CC(C)(C21)C1(C3)C(=O)OC2C3C(C)=CCC3C(C)(OC(C)=O)CC(O)C21 (centres unmarked)", "target or system": "AML12 mouse hepatocytes", "test": "MTT", "setting": "24 h, 10% FBS", "measurement": "maximum safe concentration", "result": "5 µM"}
{"SMILES": "CC1(C)CC(c2ccc(Cl)cc2)=C2CN3CCN(c4ccc(C(=O)NS(=O)(=O)c5ccc(NCC6CCOCC6)c([N+](=O)[O-])c5)c(Oc5cnc6[nH]ccc6c5)c4)CC3OC2C1 (centres unmarked)", "target or system": "primary human hepatocytes", "test": "substrate", "setting": "together with: venetoclax", "measurement": "metabolite detection", "result": "not detected"}
{"SMILES": "CC(C)C[C@H](NC(=O)[C@H](CC(N)=O)NC(=O)[C@H](CCCNC(=N)N)NC(=O)[C@@H](CC(C)C)NC(=O)[C@H](Cc1ccc(-c2ccccc2)cc1)NC(=O)[C@H](CC(=O)O)NC(=O)[C@H](CCCNC(=N)N)NC(=O)[C@@H](CC(C)C)NC(=O)[C@H](CCCCN)NC(=O)[C@H](CCC(N)=O)NC(=O)[C@@H](NC(=O)[C@@H](CC(C)C)NC(=O)[C@H](CCCNC(=N)N)NC(=O)[C@H](CCCCN)NC(=O)[C@H](Cc1ccc(-c2ccccc2)cc1)NC(=O)CN)C(C)C)C(=O)N[C@H](C(N)=O)C(C)C", "target or system": "human erythrocytes", "test": "hemolysis", "setting": "1 h, 37 °C", "scale": "baseline: Triton X-100", "measurement": "HC50", "result": "140 µM"}
{"SMILES": "C[C@@H]1O[C@H]2O[C@@H]3C4(O)C(=O)c5cccc(O)c5C(=O)C4(O)O[C@]3(C)[C@]21O (some centres unmarked)", "target or system": "HFF", "test": "cell growth or viability, MTT", "setting": "48 h", "measurement": "CC50", "result": "195 µM"}
{"SMILES": "COc1cc(N2CCN(C(=O)CCOCCNC(=O)[C@@H]3CCCN3)CC2)ccc1Nc1ncc(Cl)c(Nc2ccccc2P(C)(C)=O)n1", "target or system": "NCI-H3122", "test": "CCK-8", "setting": "0.5 µM, 48 h", "measurement": "viability", "result": "47% and 51% and 49%"}
{"SMILES": "CCCn1c2ccc([N+](=O)[O-])cc2c(=O)n1Cc1ccccc1", "target or system": "BALB/c mouse peritoneal macrophages", "test": "cytotoxicity, resazurin", "setting": "48 h, 10% fetal bovine serum", "measurement": "CC50", "result": "4.68 µM"}
{"SMILES": "C=C1C(=O)OC2C1CCC(C)(O)C13C=CC(C)(C21)C1(C3)C(=O)OC2C3C(C)=CC(=O)C3C(C)CC(OC(C)=O)C21 (centres unmarked)", "target or system": "AML12 mouse hepatocytes", "test": "MTT", "setting": "24 h, 10% FBS", "measurement": "maximum safe concentration", "result": "40 µM"}
{"SMILES": "CCOC(=O)c1cn(CC(c2c[nH]c3cc(Br)ccc23)c2c[nH]c3cc(Br)ccc23)c(C)c1C(=O)OC", "target or system": "DH82", "test": "cell growth or viability, MTS", "setting": "24 h", "measurement": "CC50", "result": "> 20 µM"}
{"SMILES": "CC(C)C[C@H](NC(=O)[C@H](CC(N)=O)NC(=O)[C@H](CCCNC(=N)N)NC(=O)[C@@H](CC(C)C)NC(=O)[C@H](Cc1ccc(-c2ccccc2)cc1)NC(=O)[C@H](CC(=O)O)NC(=O)[C@H](CCCCN)NC(=O)[C@@H](CC(C)C)NC(=O)[C@H](CCCNC(=N)N)NC(=O)[C@H](CCC(N)=O)NC(=O)[C@@H](NC(=O)[C@@H](CC(C)C)NC(=O)[C@H](CCCNC(=N)N)NC(=O)[C@H](CCCCN)NC(=O)[C@H](Cc1ccc(-c2ccccc2)cc1)NC(=O)CN)C(C)C)C(=O)N[C@H](C(N)=O)C(C)C", "target or system": "human erythrocytes", "test": "hemolysis", "setting": "1 h, 37 °C", "scale": "baseline: Triton X-100", "measurement": "HC50", "result": "150 µM"}
{"SMILES": "CN1CCCNC(=O)c2cccc(c2)C(=O)NCCCN(C)CCCNc2cccc3c2C(=O)c2cccc(c2C3=O)NCCC1", "target or system": "mouse bone marrow cells", "test": "CCK-8", "setting": "0.015 µM, 48 h", "scale": "baseline: untreated", "measurement": "viability", "result": "103%"}
{"SMILES": "CO[C@H]1[C@H](O)[C@@H](O)[C@H](c2ccc(Cl)c(Cc3ccc(O[C@H]4CCOC4)cc3)c2)O[C@@H]1CO", "target or system": "H9c2", "test": "CCK-8", "setting": "0.1 µM, together with: glucose deprivation", "scale": "baseline: control", "measurement": "viability", "result": "48.3 ± 2.43%"}
{"SMILES": "O=C1NC2(CC2)COc2ncc(F)cc2[C@H]2COCCN2c2ccn3ncc1c3n2", "target or system": "CHL", "setting": "300 µg/mL, 4 h, without S9", "measurement": "structural aberrations", "result": "0.7%"}
{"SMILES": "CC1CN(CCOCCSc2ccc(Cl)cc2)CC(C)O1.O=C(O)C(=O)O (centres unmarked)", "target or system": "Trypanosoma cruzi", "test": "reporter mRNA translation, inhibitor, item: Renilla luciferase mRNA", "test system": "cell-free extract", "setting": "concentration not given, test 2", "scale": "baseline: positive over negative control", "measurement": "translation activity", "result": "113% and 107%"}
{"SMILES": "C=C1C(=O)OC2C1CCC(C)(O)C13C=CC(C)(C21)C1(C3)C(=O)OC2C3C(C)=CC(=O)C3=C(C)CCC21 (centres unmarked)", "target or system": "AML12 mouse hepatocytes", "test": "MTT", "setting": "24 h, 10% FBS", "measurement": "maximum safe concentration", "result": "20 µM"}
{"SMILES": "Cc1c(Cc2ccccc2)c(NCCN(C)C)n2c(nc3ccccc32)c1C#N", "target or system": "Trypanosoma cruzi", "test": "reporter mRNA translation, inhibitor, item: Renilla luciferase mRNA", "test system": "cell-free extract", "setting": "concentration not given, test 2", "scale": "baseline: positive over negative control", "measurement": "translation activity", "result": "106% and 130%"}
{"SMILES": "C=C1C(=O)OC2C1CCC(C)(O)C13C=CC(C)(C21)C1(C3)C(=O)OC2C3C(=C(C)CC(OC(=O)C(C)=CC)C21)CC(O)C3(C)Cl (centres unmarked)", "target or system": "AML12 mouse hepatocytes", "test": "MTT", "setting": "24 h, 10% FBS", "measurement": "maximum safe concentration", "result": "5 µM"}
{"note": "Excerpt of the above:"}
{"SMILES": "C[N+](C)(CF)CCO", "target or system": "HK-2", "test": "cell growth or viability, ATP luminescence", "setting": "24 h", "measurement": "IC50", "result": "> 150 µM"}
{"SMILES": "C=C1C(=O)OC2C1CCC(C)(O)C13C=CC(C)(C21)C1(C3)C(=O)OC2C3C(C)=CCC3C(C)(OC(C)=O)CC(O)C21 (centres unmarked)", "target or system": "AML12 mouse hepatocytes", "test": "MTT", "setting": "24 h, 10% FBS", "measurement": "maximum safe concentration", "result": "5 µM"}
